# Assay results from different studies.
# Lines come from different studies, so protocols differ. “And” joins repeats or separate records; there may be more than shown. ± marks the error that the study gave.
# Nuclear receptor subfamily 2 group C member 2 ligand-binding domain: Nuclear receptor subfamily 2 group C member 2, ligand-binding domain (Homo sapiens, UniProt P49116)
# SKP1: S-phase kinase-associated protein 1 (SKP1, Homo sapiens, UniProt P63208)
# TOP2A: DNA topoisomerase 2-alpha (TOP2A, Homo sapiens, UniProt P11388)
# Pancreatic alpha-amylase: Pancreatic alpha-amylase (Homo sapiens, UniProt P04746)
SMILES,target,test,test system,conditions,scale,quantity,result
O=C(CN1CCO[C@H](COc2cccc(Cl)c2)C1)N1CCc2ccccc21,"DRD5 (Homo sapiens, UniProt P21918)",radioligand binding,,"concentration not given, added: [3H]SCH23390",,inhibition,5.6%
Nc1ccn([C@@H]2O[C@H](CO)[C@@H](O)[C@H]2O)c(=O)n1,Nuclear receptor subfamily 2 group C member 2 ligand-binding domain,SPR imaging,,600 nM,,koff,1.92e-07 s⁻¹
NCCCCC(=O)O,"SLC6A6 (Homo sapiens, UniProt P31641, Y138A)","binding, microscale thermophoresis",,"46.3 nM, fitted curve",higher = more binding,fraction bound,0
COCCC(=O)N1CCC(Oc2ccccc2)C1 (stereo not drawn),SKP1,"binding, affinity selection mass spectrometry",,,reference: other proteins in batch,fold enrichment,0.844
CCC1(O)CCCN(C(=O)c2ccc(-c3ccc(F)c(NC(=O)CCl)c3)cc2)C1 (stereo not drawn),"DNA dC->dU-editing enzyme APOBEC-3A (Homo sapiens, UniProt P31941)","covalent modifier, intact protein mass spectrometry, item: adduct +26309 Da",,"250 µM, 1 h, 10-fold molar excess",,protein adduct,100%
O=c1nc(SCc2cc(F)cc(C(F)(F)F)c2)nc(SCc2ccc3nc(Cl)ccc3c2)[nH]1,TOP2A,ATPase activity,,"31.25 µM, added: ATP 0.1 mM",,ATP hydrolysis rate,0.768 µM/min and 0.415 µM/min
CC(=O)NCCCC[C@H](NC(=O)CNC(=O)CNC(=O)[C@H](CCCCNC(C)=O)NC(=O)CNC(=O)[C@H](CCCNC(=N)N)NC(=O)CNC(=O)[C@@H](N)CO)C(=O)NCC(=O)N[C@@H](CC(C)C)C(=O)NCC(N)=O,"BRD1 (Homo sapiens, UniProt O95696, R585F)",ITC,,"concentration not given, 15 °C, added: peptide 2 mM",,binding stoichiometry,1.2 ± 0.3
CC(C)C[C@@H]1NC(=O)[C@H](C(C)C)NC(=O)CNC(=O)[C@H](CC(N)=O)NC(=O)[C@@H]2CCCN2C(=O)[C@H](Cc2ccc(O)cc2)NC(=O)[C@H](CCCNC(=N)N)NC(=O)[C@H](C)NC(=O)[C@@H](NC(=O)[C@H](CCCCN)NC(=O)[C@@H]2CCCN2C(=O)[C@H](CO)NC(=O)[C@H](C)NC(=O)[C@@H](N)Cc2ccc(O)cc2)CSSC[C@@H](C(=O)N[C@H](C(N)=O)[C@@H](C)O)NC(=O)[C@H](C)NC1=O,"Alpha-2-HS-glycoprotein, asialo (AHSG, Bos taurus, UniProt P12763)","binding, isothermal titration calorimetry",,"pH 7.0, 25 °C, added: asialofetuin",,-ΔH,6.16 kcal/mol
O=C1OC(c2ccccc2)=N/C1=C\c1cccc(O)c1,Pancreatic alpha-amylase,"inhibitor, Lineweaver-Burk",,"300 ppm, added: starch substrate",,Vmax,0.059 mg/mL/min
COc1ccc2c(c1)CN(CCCN1CCN(c3ccccc3OC)CC1)C2=O,"HTR1A (Homo sapiens, UniProt P08908)",radioligand binding,,"concentration not given, added: [3H]8-OH-DPAT",,inhibition,98.3%
Nc1[nH]nc2nnc(-c3c(-c4ccccc4)nn4ccccc34)cc12,"MAPK3 (Homo sapiens, UniProt P27361)",ADP-Glo,,"500 pM, added: MBP substrate",,kinase activity,111% and 64% and 78.4%
CNCCCC[C@H](NC(=O)[C@@H](NC(=O)[C@H](CCCNC(=N)N)NC(=O)[C@H](C)N)[C@@H](C)O)C(=O)N[C@@H](CCC(N)=O)C(=O)N[C@H](C(=O)N[C@@H](C)C(=O)N[C@@H](CCCNC(=N)N)C(=O)N[C@@H](CCCCN)C(=O)N[C@@H](CO)C(=O)N[C@H](C(=O)NCC(=O)NCC(=O)N[C@@H](CCCCN)C(=O)N[C@@H](C)C(=O)N[C@@H](Cc1ccc(O)cc1)C(=O)O)[C@@H](C)O)[C@@H](C)O,"Transcriptional regulator ATRX (ATRX, Homo sapiens, UniProt P46100, F284Y/K251R)",isothermal titration calorimetry,,"pH 7.5, 25.0 °C",,binding free energy,-6.35 kcal/mol
Nc1ncnc2c1ncn2[C@@H]1O[C@H](COP(=O)(O)CP(=O)(O)OP(=O)(O)O)[C@@H](O)[C@H]1O,"P2X purinoceptor 1 (P2RX1, Homo sapiens, UniProt P51575, S286A)",saturation binding,HEK293,79 nM,,specific binding,4030 CCPM and 4470 CCPM and 12700 CCPM
Cc1cc(-c2ccnc3[nH]cc(F)c23)cc(F)c1[C@@]1(O)[C@H](C)CN(C2CCS(=O)(=O)CC2)C[C@@H]1C,AKT2 and AKT3,"ATP probe binding, KiNativ, item: ATP loop",HEK293T cell lysate,0.1 µM,,inhibition,15.3%
c1ccc(C(NCc2cccnc2)(c2ccccc2)c2ccccc2)cc1,"Potassium voltage-gated channel subfamily KQT member 1, with KCNE1 (KCNQ1, Homo sapiens, UniProt P51787)",IKs,,"300 pM, with KCNE1",,deactivation time constant,1.7 ± 0.4 s
CC(=O)c1ccc2cc(S(=O)(=O)Nc3ccccn3)ccc2c1,"STAT3 (Homo sapiens, UniProt P40763)","tyrosine phosphorylation, inhibitor, ELISA, item: phospho-Tyr705",,,,Hill slope,-0.422
CCOCc1nc(O)c(-c2nnc(Cc3ccc(Cl)cn3)o2)c(O)c1-c1c(OC)cccc1OC,"Apelin receptor (APLNR, Homo sapiens, UniProt P35414)","Gαi2 activation, agonist, BRET biosensor",HEK293,,,Emax,105 ± 5%
CSC1=NS(=O)(=O)c2ccccc21,"PKLR (Homo sapiens, UniProt P30613)","enzyme activity, activator",,10 µM,,activity,inactive
C=CC(=O)N1CCC(COCC(=O)N2CCN(c3nc(-c4cnc(N)nc4C(F)F)nc(N4CCOC[C@@H]4C)n3)CC2)CC1,"TSSK1B (Homo sapiens, UniProt Q9BXA7)",KINOMEscan,,1 µM,,remaining binding,100%
C[S+](CC[C@H](N)C(=O)O)C[C@H]1O[C@@H](n2cnc3c(N)ncnc32)[C@H](O)[C@@H]1O (stereo partly drawn),"O-methyltransferase (Sorghum bicolor, UniProt A0A1B6PFV1)",,,"concentration not given, added: PTR+",,ΔH of binding,-4.54 ± 2.67 kcal/mol
CC[C@H](C)[C@H](NC(=O)[C@H](CCC(=O)O)NC(=O)[C@H](CCC(=O)O)NC(=O)[C@@H]1CCCN1C(=O)[C@H](CC(=O)O)NC(=O)[C@H](C)NC(=O)[C@H](CCC(N)=O)NC(=O)[C@@H](NC(=O)[C@H](C)NC(=O)[C@@H](NC(=O)[C@H](CO)NC(=O)[C@@H](NC(=O)[C@H](CCCCN)NC(=O)[C@@H](N)Cc1ccc(O)cc1)[C@@H](C)O)C(C)C)[C@@H](C)O)C(=O)N[C@H](C(=O)N[C@H](C(=O)N[C@@H](CC(C)C)C(=O)N[C@@H](COP(=O)(O)O)C(=O)N[C@@H](CC(=O)O)C(=O)N[C@@H](COP(=O)(O)O)C(=O)N[C@@H](CC(=O)O)C(=O)O)C(C)C)[C@@H](C)CC,"Small ubiquitin-related modifier 1 (Homo sapiens, UniProt P63165, C52A)",isothermal titration calorimetry,,"pH 7.4, SUMO1 construct",,-TΔS,-9.89 ± 0.43 kcal/mol
O=c1nc(SCc2cc(F)cc(C(F)(F)F)c2)nc(SCc2ccc3nc(OCCN4CCOCC4)ccc3c2)[nH]1,TOP2A,decatenation,,15.6 µM,,mean decatenated DNA,79.3%
Nc1nccs1,Nuclear receptor subfamily 2 group C member 2 ligand-binding domain,SPR imaging,,600 nM,,koff,2.12e-05 s⁻¹
O=S(=O)(O)O,"GUK1 (Homo sapiens, UniProt Q16774)","enzyme activity, NADH-coupled",,"5 mM, added: ATP 500 µM",,reaction velocity,0.0964 µM/s and 0.112 µM/s and 0.0809 µM/s
CN(C(=O)n1cnc(-c2ccc[n+]([O-])c2)c1)C1CCCCC1,"Faah (Mus musculus, UniProt O08914)","enzyme activity, inhibitor","NMRI mice, brain","oral, 1 h",,ED50,~0.094 mg/kg
O=C(O)c1ccc(Nc2ncc3c(n2)-c2ccc(Cl)cc2C(c2c(F)cccc2F)=NC3)cc1,Fes(h),kinase activity,,1 µM,,remaining activity,133%
Nc1ccc(C(=O)O)cc1,"BEST1, with wild-type BEST1 (Homo sapiens, UniProt O76090, A10T)",whole-cell patch clamp,HEK293 co-expressing WT and A10T mutant,"concentration not given, membrane potential -100 mV",,current density,-55.3 pA/pF and -9.97 pA/pF and -14.9 pA/pF and -30.4 pA/pF and -42.1 pA/pF and -21.8 pA/pF
Oc1ccc([C@@H]2c3c(O)cc(O)cc3[C@@H]3c4c(cc(O)c5c4[C@@H]2[C@H](c2ccc(O)cc2)[C@H]5c2cc(O)cc4c2[C@@H](c2cc(O)cc(O)c2)[C@H](c2ccc(O)cc2)O4)O[C@H]3c2ccc(O)cc2)cc1,Pancreatic alpha-amylase,"enzyme activity, inhibitor",pancreatic,concentration not given,,Vmax,1300 ± 64 µmol/min
Nc1nc2c(ncn2[C@@H]2O[C@H](COP(=O)(O)O)[C@@H](O)[C@H]2O)c(=O)[nH]1,"GUK1 (Homo sapiens, UniProt Q16774, S37A)","enzyme activity, NADH-coupled",,250 µM,,reaction rate,-0.155 s⁻¹ and 0.819 s⁻¹ and 1.18 s⁻¹
Nc1ncnc2c1ncn2[C@@H]1O[C@H](COP(=O)(O)OP(=O)(O)NP(=O)(O)O)[C@@H](O)[C@H]1O,"ATP-sensitive inward rectifier potassium channel 1 (Rattus norvegicus, UniProt P35560)",inside-out patch clamp,"renal principal cells, rat",,reference: ATP,relative channel-depressing potency,10%
CS(=O)(=O)Nc1ccc([N+](=O)[O-])cc1Oc1ccccc1,Nuclear receptor subfamily 2 group C member 2 ligand-binding domain,binding,,,,koff,9.84e-07 s⁻¹
O=C(O)[C@@H]1CCCN1c1ncnc2[nH]cnc12 (racemic),SKP1,"binding, affinity selection mass spectrometry",,,reference: other proteins in batch,fold enrichment,1.1
Cl.Nc1ncnc2nc[nH]c12,Nuclear receptor subfamily 2 group C member 2 ligand-binding domain,SPR imaging,,600 nM,,koff,1.23e-07 s⁻¹
O=C(COP(=O)(O)O)[C@@H](O)[C@H](O)[C@H](O)COP(=O)(O)O,"Small ribosomal subunit protein eS7 (Homo sapiens, UniProt P62081)","thermal proteome profiling, item: RPS7",HepG2 cell lysate,"concentration not given, 57 over 37 °C, mean",reference: compound over control,thermal stability ratio,0.624
CC1(C)S[C@@H]2[C@H](NC(=O)[C@H](NC(=O)N3CCNC3=O)c3ccccc3)C(=O)N2[C@H]1C(=O)O,Nuclear receptor subfamily 2 group C member 2 ligand-binding domain,SPR imaging,,600 nM,,koff,9.28e-07 s⁻¹
N#Cc1ccc(Cn2cncc2CN2CCN(c3cccc(OC(F)(F)F)c3)C(=O)C2)cc1F,Cryptococcus neoformans farnesyltransferase,"enzyme activity, inhibitor, fluorescence",,"added: 1 µM FPP, 0.5 µM dansylated peptide",,IC50,120 ± 40 nM

# Repeated from above:
SMILES,target,test,test system,conditions,scale,quantity,result
O=c1nc(SCc2cc(F)cc(C(F)(F)F)c2)nc(SCc2ccc3nc(OCCN4CCOCC4)ccc3c2)[nH]1,TOP2A,decatenation,,15.6 µM,,mean decatenated DNA,79.3%
O=S(=O)(O)O,"GUK1 (Homo sapiens, UniProt Q16774)","enzyme activity, NADH-coupled",,"5 mM, added: ATP 500 µM",,reaction velocity,0.0964 µM/s and 0.112 µM/s and 0.0809 µM/s
O=C(COP(=O)(O)O)[C@@H](O)[C@H](O)[C@H](O)COP(=O)(O)O,"Small ribosomal subunit protein eS7 (Homo sapiens, UniProt P62081)","thermal proteome profiling, item: RPS7",HepG2 cell lysate,"concentration not given, 57 over 37 °C, mean",reference: compound over control,thermal stability ratio,0.624
CNCCCC[C@H](NC(=O)[C@@H](NC(=O)[C@H](CCCNC(=N)N)NC(=O)[C@H](C)N)[C@@H](C)O)C(=O)N[C@@H](CCC(N)=O)C(=O)N[C@H](C(=O)N[C@@H](C)C(=O)N[C@@H](CCCNC(=N)N)C(=O)N[C@@H](CCCCN)C(=O)N[C@@H](CO)C(=O)N[C@H](C(=O)NCC(=O)NCC(=O)N[C@@H](CCCCN)C(=O)N[C@@H](C)C(=O)N[C@@H](Cc1ccc(O)cc1)C(=O)O)[C@@H](C)O)[C@@H](C)O,"Transcriptional regulator ATRX (ATRX, Homo sapiens, UniProt P46100, F284Y/K251R)",isothermal titration calorimetry,,"pH 7.5, 25.0 °C",,binding free energy,-6.35 kcal/mol
Nc1ccc(C(=O)O)cc1,"BEST1, with wild-type BEST1 (Homo sapiens, UniProt O76090, A10T)",whole-cell patch clamp,HEK293 co-expressing WT and A10T mutant,"concentration not given, membrane potential -100 mV",,current density,-55.3 pA/pF and -9.97 pA/pF and -14.9 pA/pF and -30.4 pA/pF and -42.1 pA/pF and -21.8 pA/pF
